Measured values gathered from unrelated publications.
Each line is one published result; not all experiments were run side by side. Values joined by “and” are separate records of one study, mostly repeats; a detail may differ.
Cell line: DU-145

SMILES = COc1ccc(OC)c(-c2nc3ccc(-c4nc5ccc(N6CCN(C)CC6)cc5[nH]4)cc3[nH]2)c1; test = SRB; conditions = 10 µM, 48 h; quantity = growth percent; result = 108%
SMILES = O=C(Nc1nnc2n3c(Cc4ccccc4)n[nH]c3nc(-c3ccc(Cl)cc3)c1-2)c1ccccc1; test = SRB; conditions = 10 µM, NCI60 single-dose screen, prostate cancer; how to read = relative to: untreated; quantity = cell growth; result = 103%
SMILES = CCCN1CCN(c2ccc3nc(-c4ccc5nc(-c6cc(OC)ccc6OC)[nH]c5c4)[nH]c3c2)CC1; test = SRB; conditions = 10 µM, 48 h; quantity = growth percent; result = 114%
SMILES = CCn1cc(-c2cc(Cn3ccoc3=N)cc3c2CCN([C@@H](C)c2cc(OC)ccn2)C3=O)c(C(F)(F)F)n1; test = cell growth, inhibitor; conditions = 120 h; quantity = EC50; result = 0.0288 µM
SMILES = C#C[C@@]1(O)[C@@H](CO)O[C@@H](n2ccc3c(N)ncnc32)[C@@H]1O; test = SRB; conditions = NCI-60 screen; quantity = TGI; result = 6.55 µM
SMILES = O=C(Nc1nnc2[nH]c(=S)[nH]c(-c3ccc(Cl)cc3)c1-2)c1ccccc1; test = SRB; conditions = 10 µM, NCI60 single-dose screen, prostate cancer; how to read = relative to: untreated; quantity = cell growth; result = 100%
SMILES = CC(=O)O[C@H]1C(=O)[C@@]2(C)[C@H]([C@H](OC(=O)c3ccccc3)[C@]3(O)C[C@H](OC(=O)[C@H](O)[C@@H](NC(=O)c4ccccc4)c4ccccc4)C(C)=C1C3(C)C)[C@]1(OC(C)=O)CO[C@@H]1C[C@@H]2O; test = sulforhodamine B; system = prostate cancer; conditions = NCI60 screen; quantity = TGI; result = 0.16 µM
SMILES = CCN(CC)c1ccc(C=NNC(=O)CSc2nc3ccccc3c(=O)n2Cc2ccc(S(N)(=O)=O)cc2)c(O)c1; test = NCI five-dose screen; quantity = TGI; result = > 100 µM
SMILES = Cc1n[nH]c2nc(-c3ccc(Cl)cc3)c3c(NC(=O)c4ccccc4)nnc-3n12; test = SRB; conditions = 10 µM, NCI60 single-dose screen, prostate cancer; how to read = relative to: untreated; quantity = cell growth; result = 106%
SMILES = CCCC(CCC)C(=O)OCc1cn(-c2c3ccccc3nc3ccccc23)nn1; test = NCI60 single-dose screen; conditions = 10 µM; quantity = growth percentage; result = 103%
SMILES = NNc1nc(-c2ccc(Cl)cc2)c2c(NC(=O)c3ccccc3)nnc-2[nH]1; test = SRB; conditions = 10 µM, NCI60 single-dose screen, prostate cancer; how to read = relative to: untreated; quantity = cell growth; result = 103%
SMILES = CC(O)[C@@H]1CCCN1C(=O)[C@@H]1CCCN1C(=O)OC(C)(C)C (mixture of isomers); test = cell growth, sulforhodamine B; quantity = IC50; result = 2.17 µM and 0.14 µM and 3.11 µM
SMILES = CN1CCN(c2ccc3[nH]c(-c4ccc5[nH]c(-c6ccc(C(F)(F)F)cc6)nc5c4)nc3c2)CC1; test = SRB; conditions = 10 µM, 48 h; quantity = growth percent; result = 59.1%
SMILES = O=C1NC(c2ccccc2)(c2ccccc2)C(=O)N1Cc1cn(-c2c3ccccc3nc3ccccc23)nn1; test = NCI60 single-dose screen; conditions = 10 µM; quantity = growth percentage; result = 91.2%
SMILES = C#CCCCC[C@H](C)C[C@@H](C)C(=O)O; test = cell growth, sulforhodamine B; quantity = IC50; result = 108 µM and 162 µM and 98.2 µM
SMILES = Cn1cncc1C1=CN(c2ncnc3[nH]cnc23)CCS1; conditions = prostate cancer; quantity = GI50; result = 19.1 µM
SMILES = O=C1NCCc2[nH]c(-c3ccncc3)cc21; test = MTS; system = prostate cancer; quantity = IC50; result = 2.26 µM
SMILES = CSc1nc(-c2ccc(Cl)cc2)c2c(NC(=O)c3ccccc3)nnc-2[nH]1; test = SRB; conditions = 10 µM, NCI60 single-dose screen, prostate cancer; how to read = relative to: untreated; quantity = cell growth; result = 106%
SMILES = Cc1cc(=O)[nH]c(=O)n1Cc1cn(-c2cc3ccccc3oc2=O)nn1; test = NCI60 single-dose screen; conditions = 10 µM; quantity = growth percentage; result = 109%
SMILES = c1ccc([I+]c2ccccc2)cc1; test = cell growth, trypan blue count; conditions = 48 h; quantity = IC50; result = > 10 µM
SMILES = CCCCN1CCN(c2ccc3[nH]c(-c4ccc5[nH]c(-c6cc(OC)c(OC)c(OC)c6)nc5c4)nc3c2)CC1; test = SRB; conditions = 10 µM, 48 h; quantity = growth percent; result = 91.6%
SMILES = CCn1cc(-c2cc(Cn3ccnc3)cc3c2CCN([C@H](c2cc(OC)ccn2)C2CC2)C3=O)c(C(F)(F)F)n1; test = cell growth, inhibitor; conditions = 120 h; quantity = EC50; result = > 30 µM
SMILES = CCCN1CCN(c2ccc3[nH]c(-c4ccc5[nH]c(-c6ccc(OCC)c(OCC)c6)nc5c4)nc3c2)CC1; test = SRB; conditions = 10 µM, 48 h; quantity = growth percent; result = -64.1%
SMILES = Cc1cc(C)n(C(=S)[S][Au][PH](CCCCCC[PH]([Au][S]C(=S)n2nc(C)cc2C)(c2ccccc2)c2ccccc2)(c2ccccc2)c2ccccc2)n1; test = cell growth, NCI-60 screen; conditions = prostate cancer; quantity = log10 TGI; result = > -4
SMILES = CCCN1CCN(c2ccc3[nH]c(-c4ccc5[nH]c(-c6ccc(C(F)(F)F)cc6)nc5c4)nc3c2)CC1; test = SRB; conditions = 10 µM, 48 h; quantity = growth percent; result = -95.3%
SMILES = C#C[C@@]1(O)[C@@H](CO)O[C@@H](n2cc(Br)c3c(N)ncnc32)[C@@H]1O; test = SRB; conditions = NCI-60 screen; quantity = TGI; result = > 100 µM
